Experimental data gathered from unrelated publications.
Every numbered part comes from another study and shows a few of its results, in no order.

Sample 1 — method: RNA Bind-n-Seq; form: RNA; sample: in vitro; tested at: 365 nM; reference: no-protein control; direction: higher = stronger binding
Target: RNA binding protein fox-1 homolog 2, RRM domain, GST-SBP tag (RBFOX2, Homo sapiens, UniProt O43251-10, residues 100-194)
Notes: natural RNA segment, single round, ends assumed
Construct (chain): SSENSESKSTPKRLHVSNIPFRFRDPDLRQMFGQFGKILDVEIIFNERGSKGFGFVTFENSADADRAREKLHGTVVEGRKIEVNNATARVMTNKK
Oligonucleotide	RBNS enrichment (R)
GGGAGUUCUACAGUCCGACGAUCUCCGCUCUCUAACUACAUAAACAUUUAUCUGUAUCUCUCUGUCCCGGGCUGGGGGCAGGAGGAAUCUGCCAAAGACCGACAGUCUUCCUUUACUGCACUUCACAAGGUUCUGGAAUUCUCGGGUGCCAA	1.57
GGGAGUUCUACAGUCCGACGAUCGCCCCAAACUUUGUUUACACUGCUAGGGAAGGAGGAGCUCCGGCAAGGGAAUAACUAGGCUGGUUAAAAGAGUCAGGGCUACUGGAGCCAAGGUGGGGACCUUUGAGGCUUGGAAUUCUCGGGUGCCAA	0.889
GGGAGUUCUACAGUCCGACGAUCCAGAGUGUGCAAUGUUGAAAUGGAGCAGUAGGUGCUGAGGACUUCCACUACCAUUGUAGAUCCCCUUUCACUAAAUAUAAGACAUGCUAGCUAGCCUGGCUCAGUGAGCUUGGAAUUCUCGGGUGCCAA	4.45
GGGAGUUCUACAGUCCGACGAUCCUUCUGCUGUGGGACGUGGGCCAGGCACCCUCAUUCUCUGGGCAUCUCUGCUGCAAGUGGACAAGAGUAUUUCAGAGAUCACUGAAGCCUGAGUCCAUGCACCUGCCCCAUGGAAUUCUCGGGUGCCAA	0.348

Sample 2 — method: universal PBM; form: double-stranded DNA, one strand shown; sample: in vitro; tested at: not given; direction: higher = stronger binding
Target: Sal-like protein 4, full length isoform B (SALL4, Homo sapiens, UniProt Q9UJQ4-2, residues 1-616)
Notes: 8-mer, flanks averaged, mean of replicates
Residues (chain): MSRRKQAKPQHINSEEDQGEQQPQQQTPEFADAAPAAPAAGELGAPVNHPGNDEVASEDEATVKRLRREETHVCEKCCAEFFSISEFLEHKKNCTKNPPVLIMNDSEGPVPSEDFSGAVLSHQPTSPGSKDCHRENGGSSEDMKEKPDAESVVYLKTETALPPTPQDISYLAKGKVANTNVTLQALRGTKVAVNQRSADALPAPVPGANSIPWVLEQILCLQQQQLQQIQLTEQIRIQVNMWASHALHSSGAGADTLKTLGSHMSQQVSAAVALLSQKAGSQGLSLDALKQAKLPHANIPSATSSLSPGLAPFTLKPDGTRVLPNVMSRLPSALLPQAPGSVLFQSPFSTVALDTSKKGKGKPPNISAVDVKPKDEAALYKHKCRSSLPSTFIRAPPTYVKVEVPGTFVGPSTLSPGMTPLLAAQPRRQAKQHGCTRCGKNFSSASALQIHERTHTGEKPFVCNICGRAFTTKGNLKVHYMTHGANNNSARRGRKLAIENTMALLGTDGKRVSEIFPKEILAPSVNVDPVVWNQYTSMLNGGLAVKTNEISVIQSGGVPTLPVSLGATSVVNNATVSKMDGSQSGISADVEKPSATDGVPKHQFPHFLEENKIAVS
Oligonucleotide	E-score
CTCTTACC	-0.0446
CGATTGCA	-0.00618
CCAGATAC	-0.0565
ACTCGGTC	-0.186
AACGATGC	-0.0412

Sample 3 — method: protein-binding microarray; form: double-stranded DNA, one strand shown; sample: in vitro; tested at: 2540 nM top; notes: 60-bp whole probe; together with: salmon DNA 0.4 mg/ml; reference: random background probes; direction: higher = stronger binding; constant ends, left off below: GCCTAGCAC … GTCTTGATTCGCTTGACGCTGCTG
Target: Interferon regulatory factor 3, full length, phosphomimetic (IRF3, Homo sapiens, UniProt Q14653, residues 1-427, S386D/S396D/S398D/S402D/T404D/S405D)
Construct (chain): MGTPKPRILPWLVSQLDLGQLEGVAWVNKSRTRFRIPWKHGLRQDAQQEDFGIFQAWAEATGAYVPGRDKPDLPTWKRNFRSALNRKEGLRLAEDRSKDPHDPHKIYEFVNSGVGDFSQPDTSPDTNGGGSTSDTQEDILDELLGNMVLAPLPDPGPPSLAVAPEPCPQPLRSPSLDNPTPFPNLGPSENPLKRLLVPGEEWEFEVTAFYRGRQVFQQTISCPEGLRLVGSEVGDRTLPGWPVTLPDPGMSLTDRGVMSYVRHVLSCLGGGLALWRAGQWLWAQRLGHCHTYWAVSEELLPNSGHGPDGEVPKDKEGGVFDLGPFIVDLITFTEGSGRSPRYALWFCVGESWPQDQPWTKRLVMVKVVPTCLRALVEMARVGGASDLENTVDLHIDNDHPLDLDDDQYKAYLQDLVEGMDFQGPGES
Oligonucleotide	fitted relative affinity [z-score]
TTAGAACAGAGTTTCGATTAGTGCTAG	2.53
CTGACCTTTTCCTGAGGCAGGTGCTAG	2.74
GACGAACTGGGGTATCAAGACGTGCTA	-0.371
TTAGGTATCCTACTCCTTTAGTGCTAG	4.23
TCATCTCTGCTTGTATCACTGTGCTAG	1.22
TAATGGATATATATCATTTAGTGCTAG	0.675

Single results of other studies
Substance	target	assay	system	setting	scale	quantity	value
PhoQ, residues 284 288 289 292 302 303 SSYNSA	PhoP, residues 12 14 15 18 19 NQAHL (Escherichia coli, UniProt P23836)	Sort-seq, refers to: YFP reporter	E. coli	PhoQ-PhoP variant library, together with: 10 µM Mg2+	reference: high Mg2+ state, higher = stronger signaling	fold induction	1.08

A few entries again (single results of other studies):
Substance	target	assay	system	setting	scale	quantity	value
PhoQ, residues 284 288 289 292 302 303 SSYNSA	PhoP, residues 12 14 15 18 19 NQAHL (Escherichia coli, UniProt P23836)	Sort-seq, refers to: YFP reporter	E. coli	PhoQ-PhoP variant library, together with: 10 µM Mg2+	reference: high Mg2+ state, higher = stronger signaling	fold induction	1.08
